Experimental data collected from several papers.
Each line is one published result; not all experiments were run side by side. Numbers after ± are the reported error.
APP: Amyloid-beta precursor protein (APP, Homo sapiens, UniProt P05067)
UniProt P05067, sequence (whole entry, looked up): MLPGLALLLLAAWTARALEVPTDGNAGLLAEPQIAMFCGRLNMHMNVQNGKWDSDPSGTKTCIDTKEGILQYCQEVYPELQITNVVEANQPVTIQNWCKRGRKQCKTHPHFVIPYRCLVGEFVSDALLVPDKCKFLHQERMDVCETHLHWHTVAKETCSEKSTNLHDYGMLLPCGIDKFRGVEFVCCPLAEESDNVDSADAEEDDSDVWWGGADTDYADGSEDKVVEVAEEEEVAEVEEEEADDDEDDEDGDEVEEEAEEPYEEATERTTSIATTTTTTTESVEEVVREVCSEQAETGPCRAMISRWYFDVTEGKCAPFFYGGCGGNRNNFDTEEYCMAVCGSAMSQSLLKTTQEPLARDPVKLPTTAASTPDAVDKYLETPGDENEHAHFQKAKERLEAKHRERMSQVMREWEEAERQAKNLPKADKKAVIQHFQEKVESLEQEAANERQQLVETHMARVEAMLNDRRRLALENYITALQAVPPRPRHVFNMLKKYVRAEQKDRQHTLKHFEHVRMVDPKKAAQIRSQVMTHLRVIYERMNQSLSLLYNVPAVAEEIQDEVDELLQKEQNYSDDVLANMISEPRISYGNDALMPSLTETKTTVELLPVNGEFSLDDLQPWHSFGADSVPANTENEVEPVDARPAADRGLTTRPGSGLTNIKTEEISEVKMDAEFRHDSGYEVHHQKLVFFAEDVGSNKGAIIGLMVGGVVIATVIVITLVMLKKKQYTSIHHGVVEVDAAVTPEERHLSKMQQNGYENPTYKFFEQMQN
MT-CYB: MT-CYB (Plasmodium falciparum, UniProt Q02768)
UniProt Q02768, sequence (whole entry, looked up): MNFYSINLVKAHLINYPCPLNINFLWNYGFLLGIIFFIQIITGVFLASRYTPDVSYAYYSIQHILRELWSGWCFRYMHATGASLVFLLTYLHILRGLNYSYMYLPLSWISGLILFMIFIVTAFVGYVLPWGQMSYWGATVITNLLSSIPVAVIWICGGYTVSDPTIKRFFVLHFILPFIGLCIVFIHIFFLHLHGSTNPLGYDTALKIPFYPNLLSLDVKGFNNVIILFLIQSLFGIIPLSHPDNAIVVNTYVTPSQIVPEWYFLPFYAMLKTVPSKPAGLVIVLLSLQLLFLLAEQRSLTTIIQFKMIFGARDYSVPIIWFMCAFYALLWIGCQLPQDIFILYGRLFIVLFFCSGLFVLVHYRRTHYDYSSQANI
PPIA: Peptidyl-prolyl cis-trans isomerase A (PPIA, Homo sapiens, UniProt P62937)
UniProt P62937, sequence (whole entry, looked up): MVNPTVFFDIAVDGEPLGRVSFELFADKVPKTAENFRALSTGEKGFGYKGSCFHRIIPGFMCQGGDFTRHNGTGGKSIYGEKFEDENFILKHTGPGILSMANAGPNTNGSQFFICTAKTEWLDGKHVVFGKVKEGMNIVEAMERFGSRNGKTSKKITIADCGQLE
UniProt P08913, sequence (whole entry, looked up): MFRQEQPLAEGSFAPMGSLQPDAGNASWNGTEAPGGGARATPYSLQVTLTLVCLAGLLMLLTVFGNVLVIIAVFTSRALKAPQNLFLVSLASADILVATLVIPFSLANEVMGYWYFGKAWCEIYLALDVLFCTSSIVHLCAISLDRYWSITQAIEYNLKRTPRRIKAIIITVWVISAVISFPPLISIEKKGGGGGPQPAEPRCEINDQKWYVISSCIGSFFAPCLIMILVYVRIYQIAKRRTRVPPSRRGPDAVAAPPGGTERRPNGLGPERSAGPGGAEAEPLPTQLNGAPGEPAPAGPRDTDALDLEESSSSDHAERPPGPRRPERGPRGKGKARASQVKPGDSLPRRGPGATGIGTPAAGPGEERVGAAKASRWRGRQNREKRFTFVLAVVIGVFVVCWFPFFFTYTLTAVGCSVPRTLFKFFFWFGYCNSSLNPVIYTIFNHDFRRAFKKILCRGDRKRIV
UniProt P78329, sequence (whole entry, looked up): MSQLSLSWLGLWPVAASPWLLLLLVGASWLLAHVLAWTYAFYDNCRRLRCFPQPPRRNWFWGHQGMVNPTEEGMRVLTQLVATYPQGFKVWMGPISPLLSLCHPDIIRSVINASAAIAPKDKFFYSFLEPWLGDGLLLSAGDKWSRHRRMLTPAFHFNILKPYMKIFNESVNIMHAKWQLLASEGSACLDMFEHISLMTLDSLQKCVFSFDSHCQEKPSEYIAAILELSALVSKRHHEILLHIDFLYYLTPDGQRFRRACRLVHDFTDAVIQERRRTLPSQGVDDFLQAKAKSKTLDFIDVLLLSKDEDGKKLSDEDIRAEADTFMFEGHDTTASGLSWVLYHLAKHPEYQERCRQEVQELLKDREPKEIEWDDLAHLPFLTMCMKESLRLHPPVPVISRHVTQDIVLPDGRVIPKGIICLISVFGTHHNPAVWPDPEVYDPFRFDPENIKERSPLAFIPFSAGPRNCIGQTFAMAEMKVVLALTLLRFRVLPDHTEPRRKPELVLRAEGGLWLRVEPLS
UniProt Q00195, sequence (whole entry, looked up): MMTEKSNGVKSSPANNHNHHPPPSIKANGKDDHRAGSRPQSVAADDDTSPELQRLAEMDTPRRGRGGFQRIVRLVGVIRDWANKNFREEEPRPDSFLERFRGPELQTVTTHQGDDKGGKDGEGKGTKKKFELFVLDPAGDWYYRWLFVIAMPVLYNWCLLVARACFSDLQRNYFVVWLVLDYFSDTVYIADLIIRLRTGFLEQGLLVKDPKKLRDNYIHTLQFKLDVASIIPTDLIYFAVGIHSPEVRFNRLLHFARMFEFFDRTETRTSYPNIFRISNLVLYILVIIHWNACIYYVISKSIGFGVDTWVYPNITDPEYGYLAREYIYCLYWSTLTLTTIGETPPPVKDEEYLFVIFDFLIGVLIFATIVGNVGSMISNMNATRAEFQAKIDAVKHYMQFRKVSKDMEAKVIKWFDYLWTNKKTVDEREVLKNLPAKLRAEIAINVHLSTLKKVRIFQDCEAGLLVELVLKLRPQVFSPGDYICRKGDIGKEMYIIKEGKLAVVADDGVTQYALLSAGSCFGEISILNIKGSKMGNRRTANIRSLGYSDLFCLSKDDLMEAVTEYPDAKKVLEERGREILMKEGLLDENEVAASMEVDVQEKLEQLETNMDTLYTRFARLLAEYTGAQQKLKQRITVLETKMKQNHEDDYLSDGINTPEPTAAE
UniProt P50750, sequence (whole entry, looked up): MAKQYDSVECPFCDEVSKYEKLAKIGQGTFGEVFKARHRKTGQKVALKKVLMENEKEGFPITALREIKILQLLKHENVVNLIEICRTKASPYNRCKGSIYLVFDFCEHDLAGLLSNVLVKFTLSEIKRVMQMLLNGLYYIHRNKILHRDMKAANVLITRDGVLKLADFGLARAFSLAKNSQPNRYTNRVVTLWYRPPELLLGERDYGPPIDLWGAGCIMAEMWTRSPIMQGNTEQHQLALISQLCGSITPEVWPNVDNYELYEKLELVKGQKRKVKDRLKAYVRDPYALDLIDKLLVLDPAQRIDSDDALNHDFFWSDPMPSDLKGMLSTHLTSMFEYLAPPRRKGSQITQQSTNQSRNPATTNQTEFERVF
UniProt Q16539, sequence (whole entry, looked up): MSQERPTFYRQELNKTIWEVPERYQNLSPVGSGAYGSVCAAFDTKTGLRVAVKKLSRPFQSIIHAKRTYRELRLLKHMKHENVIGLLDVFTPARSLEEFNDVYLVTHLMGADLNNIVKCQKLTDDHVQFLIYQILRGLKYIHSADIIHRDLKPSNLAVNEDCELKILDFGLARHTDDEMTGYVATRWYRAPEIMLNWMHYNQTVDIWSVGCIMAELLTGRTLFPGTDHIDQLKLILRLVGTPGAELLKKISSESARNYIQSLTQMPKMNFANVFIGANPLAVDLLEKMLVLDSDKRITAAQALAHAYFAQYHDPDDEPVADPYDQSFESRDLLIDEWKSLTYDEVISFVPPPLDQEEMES
UniProt P17405, sequence (whole entry, looked up): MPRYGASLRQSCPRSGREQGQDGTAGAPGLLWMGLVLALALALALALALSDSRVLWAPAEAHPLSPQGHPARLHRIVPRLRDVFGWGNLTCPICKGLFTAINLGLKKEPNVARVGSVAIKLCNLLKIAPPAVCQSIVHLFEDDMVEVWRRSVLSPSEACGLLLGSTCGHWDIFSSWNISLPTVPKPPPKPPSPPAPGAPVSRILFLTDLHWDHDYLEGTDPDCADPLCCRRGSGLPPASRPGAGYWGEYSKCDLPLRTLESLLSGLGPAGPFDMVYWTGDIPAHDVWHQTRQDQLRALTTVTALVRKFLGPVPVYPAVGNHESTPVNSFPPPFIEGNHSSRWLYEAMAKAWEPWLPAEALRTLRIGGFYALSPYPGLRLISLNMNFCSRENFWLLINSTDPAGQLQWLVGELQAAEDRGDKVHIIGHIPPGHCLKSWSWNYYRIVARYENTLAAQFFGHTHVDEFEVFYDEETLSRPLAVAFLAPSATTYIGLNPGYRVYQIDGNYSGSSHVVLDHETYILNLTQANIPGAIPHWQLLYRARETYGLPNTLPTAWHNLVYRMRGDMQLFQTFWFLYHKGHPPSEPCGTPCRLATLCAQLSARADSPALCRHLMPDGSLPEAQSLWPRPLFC
UniProt Q8TBX8, sequence (whole entry, looked up): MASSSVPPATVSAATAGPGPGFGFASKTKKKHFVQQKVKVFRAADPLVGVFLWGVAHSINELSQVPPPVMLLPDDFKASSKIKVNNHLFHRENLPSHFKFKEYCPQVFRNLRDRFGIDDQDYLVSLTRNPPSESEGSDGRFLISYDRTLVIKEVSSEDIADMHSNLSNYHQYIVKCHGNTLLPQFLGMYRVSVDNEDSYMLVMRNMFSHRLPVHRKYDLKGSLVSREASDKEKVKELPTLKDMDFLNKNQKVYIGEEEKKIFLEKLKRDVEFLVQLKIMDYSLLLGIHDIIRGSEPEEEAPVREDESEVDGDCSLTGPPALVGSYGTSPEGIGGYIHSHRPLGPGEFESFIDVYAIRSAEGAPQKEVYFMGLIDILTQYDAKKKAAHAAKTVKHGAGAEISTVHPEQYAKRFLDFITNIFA

| Substance | target | test | test system | conditions | how to read | inhibition |
| --- | --- | --- | --- | --- | --- | --- |
| CCOC(=O)CN1C(=O)Cc2c([nH]c3ccc(Br)cc23)-c2ccc(Cl)cc21 | Trypanothione synthetase (Leishmania infantum, UniProt A4I2Z3) | enzyme activity |  | 30 µM |  | 36% |
| CC[C@H](C)[C@H](NC(=O)[C@@H](NC(=O)CN)C(C)C)C(=O)N[C@@H](C)C(N)=O | APP | amyloid aggregation, inhibitor, fluorescence |  | 2 µM, 24 h |  | 84.4% |
| COc1ccc(NS(=O)(=O)c2cc(NC(=O)Cn3ccccc3=O)ccc2N2CCCCC2)cc1 | MT-CYB | enzyme activity, inhibitor |  | 0.5 µM |  | 14.6% |
| CC[C@H](C)[C@H](NC(=O)[C@@H](NC(=O)[C@@H](N)Cc1ccccc1)C(C)C)C(=O)N[C@@H](C)C(N)=O | APP | amyloid aggregation, inhibitor, fluorescence |  | 2 µM, 24 h |  | 51.9% |
| Cc1cccc2nc(-c3ccc(-c4ccc(CN5CC(C)OC(C)C5)cc4)cc3)[nH]c12.O=C(O)C(F)(F)F (stereo not shown) | MT-CYB | enzyme activity, inhibitor |  | 0.5 µM |  | 49% |
| LLHNYGVYT | ITGAM (Homo sapiens, UniProt P11215) | binding to fibrinogen D fragment | peptide | 200 µM, added: fibrinogen D fragment 1 µg/mL |  | 25% |
| Cc1cccc(C)c1C(=O)OCC(=O)[C@H](CCCCN)NC(=O)[C@H](CCCN=C(N)N)NC(=O)OCc1ccccc1 | Cathepsin B (CTSB, Homo sapiens, UniProt P07858) | peptide library cleavage, MSP-MS |  | 64 nM, 1 h, pH 4.6, 30 min preincubation |  | no inhibition |
| COC(=O)c1cc(Cc2ccc(NC(=O)c3ccccc3)c(C(=O)OC)c2)ccc1NC(=O)c1ccccc1 | PPIA | enzyme activity, inhibitor |  | 10 µM |  | 11.2% |
| COc1cc(C(=O)Nc2scc(-c3ccc(Br)cc3)c2C(=O)O)cc(OC)c1OC | Sphingomyelin phosphodiesterase (SMPD1, Homo sapiens, UniProt P17405) | inhibitor |  | concentration not given, pH 6.5, added: sphingomyelin substrate |  | inactive |
| Cc1c(C)c2c(c(C)c1O)CC[C@@](C)(CCCCCCCCCn1ccnc1)O2 | Cytochrome P450 4F2 (Homo sapiens, UniProt P78329) | γ-tocopherol metabolism | HepG2 | 1 µM, 6 h pre-incubation, added: γ-tocopherol 25 µM for 24 h after washout |  | inhibited |
| CC[C@@H](C)[C@H](NC(=O)C(=O)CCCCc1ccc(OC)cc1)C(=O)NCC(=O)OC(C)(C)C | Cytosolic phospholipase A2 (PLA2G4A, Homo sapiens, UniProt P47712) | enzyme activity, mixed micelle |  | 0.091 mole fraction |  | 57.3 ± 3.3% |
| Clc1cccc(Nc2ccc3c(N4CCCCC4)ncnc3n2)c1 | MT-CYB | enzyme activity, inhibitor |  | 0.5 µM |  | 4.76% |
| CCCCCCCC(=O)OC[C@H](CO)OC(=O)CCCCCCC | Cyclic nucleotide-gated channel alpha-2 (Cnga2, Rattus norvegicus, UniProt Q00195) | cGMP-activated current, inside-out patch, Xenopus oocytes |  | 0.5 µM, added: cGMP 100 µM, saturating |  | 10% |
| Cc1ccc(C2CC(c3cc(Br)ccc3O)=NN2c2ccc(S(N)(=O)=O)cc2)cc1 (stereo not shown) | Carbonic anhydrase 2 (CA2, Homo sapiens, UniProt P00918) | enzyme activity, inhibitor, absorbance |  | 1 mM |  | 31% |
| Clc1ccc(N2CCN(Cc3c[nH]c4ncccc34)CC2)cc1 | Alpha-2A adrenergic receptor (ADRA2A, Homo sapiens, UniProt P08913) | [3H]RX821002 binding, radioligand displacement | Sf9 membranes | concentration not given |  | ~30% |
| COc1cc(OC)cc(C(=O)Nc2ccc(Cc3ccc(NC(=O)c4cc(OC)cc(OC)c4)c(C(=O)O)c3)cc2C(=O)O)c1 | PPIA | enzyme activity, inhibitor |  | 10 µM |  | 12.4% |
| CN(C)C/C=C/C(=O)Nc1cccc(C(=O)Nc2ccc(Nc3nccc(-c4c(-c5ccccc5)nn5ccccc45)n3)cc2)c1 | Mitogen-activated protein kinase 14 (MAPK14, Homo sapiens, UniProt Q16539) | ATP-biotin kinase labeling, KiNativ | A-375 | 1 µM, 3 h |  | 95.9% |
| CC[C@H](C)[C@H](NC(=O)[C@@H](NC(=O)[C@@H](N)C(C)C)C(C)C)C(=O)N[C@@H](CC(C)C)C(N)=O | APP | amyloid aggregation, inhibitor, fluorescence |  | 2 µM, 24 h |  | 18.7% |
| COC(=O)c1cc(Cc2ccc(NC(=O)c3ccc(Cl)cc3)c(C(=O)OC)c2)ccc1NC(=O)c1ccc(Cl)cc1 | PPIA | enzyme activity, inhibitor |  | 10 µM |  | 10.2% |
| CC[C@H](C)[C@H](NC(=O)C(C)(C)NC(=O)[C@@H](N)C(C)C)C(=O)N[C@@H](C)C(N)=O | APP | amyloid aggregation, inhibitor, fluorescence |  | 4 µM, 24 h |  | 50% |
| Fc1ccc(Cn2c(NCc3ccco3)nc3ccccc32)c(Cl)c1 | Short transient receptor potential channel 5 (TRPC5, Homo sapiens, UniProt Q9UL62) | ion current, inhibitor, automated patch clamp |  | 3 µM | relative to: reference inhibitor | 24% |
| CC(C)(C)c1cnc(CSc2cnc(NC(=O)C3CCN(CC(=O)NCCOCCOCCOCCNc4cccc5c4C(=O)N(C4CCC(=O)NC4=O)C5=O)CC3)s2)o1 (stereo not shown) | Cyclin-dependent kinase 9 (CDK9, Homo sapiens, UniProt P50750) | target engagement in cells, inhibitor, chemoproteomics | MOLT-4 | 0.25 µM |  | 30.7% |
| Cc1cc(NC(=O)c2cccc(NC(=O)/C=C/CN(C)C)c2)ccc1Nc1nccc(-c2cccnc2)n1 | Phosphatidylinositol 5-phosphate 4-kinase type-2 gamma (PIP4K2C, Homo sapiens, UniProt Q8TBX8) | ATP-biotin probe labeling, KiNativ | A-375 | 1 µM, 3 h, first of two sites |  | 1.9% |
| CC[C@H](C)[C@H](NC(=O)[C@@H](NC(=O)[C@@H](N)C(C)C)C(C)C)C(=O)N[C@H](C)C(N)=O | APP | amyloid aggregation, inhibitor, fluorescence |  | 2 µM, 24 h |  | 68.6% |
| C[C@H]1O[C@H](O[C@H]2[C@H](O)[C@@H](O)[C@@H](O[C@H]3[C@H](O)[C@@H](O)C(O)O[C@@H]3CO)O[C@@H]2CO)[C@H](O)[C@@H](O)[C@@H]1N[C@H]1C=C(CO)[C@@H](O)[C@H](O)[C@H]1O (stereo partly shown) | Lysosomal alpha-glucosidase (GAA, Homo sapiens, UniProt P10253) | enzyme activity, inhibitor, fluorescence |  | 1.43 mM, pH 4, lysate |  | 66% |

Some of these lines once more:
| Substance | target | test | test system | conditions | how to read | inhibition |
| --- | --- | --- | --- | --- | --- | --- |
| CC[C@@H](C)[C@H](NC(=O)C(=O)CCCCc1ccc(OC)cc1)C(=O)NCC(=O)OC(C)(C)C | Cytosolic phospholipase A2 (PLA2G4A, Homo sapiens, UniProt P47712) | enzyme activity, mixed micelle |  | 0.091 mole fraction |  | 57.3 ± 3.3% |
| CC(C)(C)c1cnc(CSc2cnc(NC(=O)C3CCN(CC(=O)NCCOCCOCCOCCNc4cccc5c4C(=O)N(C4CCC(=O)NC4=O)C5=O)CC3)s2)o1 (stereo not shown) | Cyclin-dependent kinase 9 (CDK9, Homo sapiens, UniProt P50750) | target engagement in cells, inhibitor, chemoproteomics | MOLT-4 | 0.25 µM |  | 30.7% |
| Clc1cccc(Nc2ccc3c(N4CCCCC4)ncnc3n2)c1 | MT-CYB | enzyme activity, inhibitor |  | 0.5 µM |  | 4.76% |
| CC[C@H](C)[C@H](NC(=O)[C@@H](NC(=O)[C@@H](N)C(C)C)C(C)C)C(=O)N[C@@H](CC(C)C)C(N)=O | APP | amyloid aggregation, inhibitor, fluorescence |  | 2 µM, 24 h |  | 18.7% |
